{"data": "Published values gathered from unrelated publications", "note": "Numbered parts are unrelated; each lists some results of a single study. Changes are numbered by the printed parent chain."}
{"data": "Series 1", "target": "FOSL1, bZIP domain (human)", "method": "DHFR protein complementation", "medium": "yeast", "notes": "single substitutions, most at no-binding floor", "reference": "wild-type JUN-FOS pair", "direction": "higher = stronger binding", "parent": "JUN, bZIP domain (human); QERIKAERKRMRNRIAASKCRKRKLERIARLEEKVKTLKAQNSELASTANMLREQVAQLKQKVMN; partner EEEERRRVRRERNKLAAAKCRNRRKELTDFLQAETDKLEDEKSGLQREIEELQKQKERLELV"}
{"Substitution": "S43N", "binding fitness": "-0.385 natural log"}
{"Substitution": "K34H", "binding fitness": "-0.26 natural log"}
{"Substitution": "N42A", "binding fitness": "-1.04 natural log"}
{"Substitution": "V56H", "binding fitness": "-1.54 natural log"}
{"Substitution": "L52Q", "binding fitness": "-1.53 natural log"}
{"Substitution": "S47L", "binding fitness": "-0.408 natural log"}
{"Substitution": "L52R", "binding fitness": "-1.39 natural log"}
{"Substitution": "E33I", "binding fitness": "-0.812 natural log"}
{"Substitution": "E54V", "binding fitness": "-0.783 natural log"}
{"Substitution": "L31K", "binding fitness": "-1.23 natural log"}
{"Substitution": "Q55D", "binding fitness": "-0.836 natural log"}
{"Substitution": "E33M", "binding fitness": "-0.539 natural log"}
{"Substitution": "R30S", "binding fitness": "-0.236 natural log"}
{"Substitution": "L31F", "binding fitness": "-0.732 natural log"}
{"data": "Series 2", "target": "RNA binding protein fox-1 homolog 2, RRM domain, GST-SBP tag (RBFOX2, Homo sapiens, UniProt O43251-10, residues 100-194)", "method": "RNA Bind-n-Seq", "form": "RNA", "medium": "in vitro", "tested at": "365 nM", "notes": "natural RNA segment, single round, ends assumed", "reference": "no-protein control", "direction": "higher = stronger binding", "constant ends, left off below": "GGGAGUUCUACAGUCCGACGAUC … UGGAAUUCUCGGGUGCCAA", "Target sequence (chain)": "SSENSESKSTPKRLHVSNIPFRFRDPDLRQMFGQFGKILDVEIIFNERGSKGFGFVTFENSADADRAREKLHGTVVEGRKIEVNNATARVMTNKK"}
{"Strand": "ACUACAAGCUGGAGUGUAGGAAUUGACUAUAGCAAUUUGAUACAUUUUUAAAGCUGCUUCCUGUUUGUUGAGGGUCUGUAUUCAUAGACCUUGACUGGAAUAUGUAAGAC", "RBNS enrichment (R)": 0.354}
{"Strand": "GUCCACUUUGGUUUUUCUUAUCUCUGUAUGUAAGAAAUUCUGUUUGUUGUUUACUAUGGAAUUAGUAUUACAUUUUGAGGUAAACAAAGAAUUUGUAUUGCUUGAUAAAC", "RBNS enrichment (R)": 0.709}
{"Strand": "AGAGGUCGCCGUGGGAAAACAGCACAACAGCACCUCUUGUGUGUGUACUUUCUACCCCCGCCCCCAGUUGUUUUCAGUUAGUAUUUAUUCCUUGGAGUCUAUGAGACUGU", "RBNS enrichment (R)": 0.719}
{"Strand": "CUUGUGACCUCUGUCCACAGUCAUUUGAAGGAAGGAUUUCCUUUGGUUUUAGCUAUGCUUAUGAAAUUGAGAAACAAUUGCAAUGUUAAGAGUUUAUGUGAAGUAUACAU", "RBNS enrichment (R)": 1.41}
{"Strand": "UCUGCAGCUUUCUGUGUAAGGCCCGUGUACUCCCACUGGGCAGGGUGAGGACCAAAAAUCUGAAACUCUUAUGAAUCUGACAUAUUAUAUGGAAAUUAUAUCUUGUGACC", "RBNS enrichment (R)": 0.472}
{"Strand": "GAUUCCACUCAGAACCUCUCUGGAAUUUGUGCCUGAUGUGCCUUCCACUGGAUUUUGGGGUUCCCAGCACCCCAUGUGGAUUUUGGGGGGUCCCUUUUGUGUCUCCCCCG", "RBNS enrichment (R)": 0.326}
{"Strand": "GUGGAAGGGUUGGGGGAAGAGCUCCAGCCUGUCUGCUCCCCAGCUCUGUAGUGGCAGACCAGCGUCACCUUUGAAGUAUACGUGAGAGAAAUAUAUUUACAAAUGCUUUA", "RBNS enrichment (R)": 1.32}
{"Strand": "CAUUUGCCUCUUCGUUUUGACCAAGCACAAAAGAGAUAUUCCCUAGAAGUGUCACACGGAGGCUUCUGUGCCAAAGACUGCCUUGUAGAGGUCUCAUCACCUCACACUUC", "RBNS enrichment (R)": 1.64}
{"data": "Series 3", "target": "ABI1, truncated, D143A, DHFR fusion (Arabidopsis thaliana, UniProt P49597)", "method": "DHFR PCA, dose-response", "medium": "yeast", "notes": "Hill fit, mean, not affinity", "with": "(+)-ABA, dose series", "direction": "lower = more sensitive", "parent": "PYL1, truncated, DHFR fusion (Arabidopsis thaliana, UniProt Q8VZS8); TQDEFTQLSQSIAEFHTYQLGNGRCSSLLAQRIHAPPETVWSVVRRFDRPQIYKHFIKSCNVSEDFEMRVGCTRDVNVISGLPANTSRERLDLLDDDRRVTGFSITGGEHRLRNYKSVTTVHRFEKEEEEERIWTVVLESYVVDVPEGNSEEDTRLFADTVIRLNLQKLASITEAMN"}
{"Substitution": "V136L", "ABA EC50 [µM]": 2.07}
{"Substitution": "G71F", "ABA EC50 [µM]": 196}
{"Substitution": "E4S", "ABA EC50 [µM]": 3.21}
{"Substitution": "L164Q", "ABA EC50 [µM]": 0.994}
{"Substitution": "T73C", "ABA EC50 [µM]": 2.78}
{"Substitution": "V100T", "ABA EC50 [µM]": 25}
{"Substitution": "R32F", "ABA EC50 [µM]": 3.52}
{"Substitution": "S26H", "ABA EC50 [µM]": 3.62}
{"Substitution": "L94V", "ABA EC50 [µM]": 44.3}
{"Substitution": "E130N", "ABA EC50 [µM]": 2.76}
{"Substitution": "E139G", "ABA EC50 [µM]": 546}
{"Substitution": "L156I", "ABA EC50 [µM]": 2.13}
{"Substitution": "E64Y", "ABA EC50 [µM]": 6.53}
{"Substitution": "E127G", "ABA EC50 [µM]": 2.34}
{"Substitution": "I57F", "ABA EC50 [µM]": 390}
{"Substitution": "N77D", "ABA EC50 [µM]": 3.34}
{"Substitution": "F15N", "ABA EC50 [µM]": 16.9}
{"Substitution": "S63N", "ABA EC50 [µM]": 3.25}
{"Substitution": "S27A", "ABA EC50 [µM]": 8.82}
{"Substitution": "T135V", "ABA EC50 [µM]": 85.6}
{"Substitution": "R123E", "ABA EC50 [µM]": 1.6}
{"Substitution": "V142K", "ABA EC50 [µM]": 14.6}
{"Substitution": "E38F", "ABA EC50 [µM]": 91}
{"Substitution": "G102K", "ABA EC50 [µM]": 72.2}
{"Substitution": "Q10S", "ABA EC50 [µM]": 1.32}
{"data": "Series 4", "target": "CCNA1, cyclin fold, Cln2 fusion (human)", "method": "yeast growth competition, sequencing", "medium": "yeast", "notes": "weak parent motif", "reference": "not given", "direction": "higher = stronger binding", "parent": "RBL1 docking peptide (human); GSAKRRLFGEDPP"}
{"Substitution": "GSQKRRLFGEDPP [A3Q]", "normalised enrichment score": 0.191}
{"Substitution": "GSAKRRLFTEDPP [G9T]", "normalised enrichment score": 0.641}
{"Substitution": "GSAKRRSFGEDPP [L7S]", "normalised enrichment score": 0.194}
{"Substitution": "GSAKNRLFGEDPP [R5N]", "normalised enrichment score": 0.303}
{"Substitution": "GSAKRRLFGEDSP [P12S]", "normalised enrichment score": 0.688}
{"Substitution": "GSAKRTLFGEDPP [R6T]", "normalised enrichment score": 0.215}
{"Substitution": "GSAKRRLFPEDPP [G9P]", "normalised enrichment score": 0.609}
{"Substitution": "GSAKRRLFGFDPP [E10F]", "normalised enrichment score": 0.517}
{"Substitution": "GSAKRHLFGEDPP [R6H]", "normalised enrichment score": 0.47}
{"Substitution": "GSAKRRLFGEDQP [P12Q]", "normalised enrichment score": 0.305}
{"Substitution": "GAAKRRLFGEDPP [S2A]", "normalised enrichment score": 0.684}
{"Substitution": "GSARRRLFGEDPP [K4R]", "normalised enrichment score": 1.26}
{"Substitution": "GSAKRRLFFEDPP [G9F]", "normalised enrichment score": 0.954}
{"Substitution": "GSAKRALFGEDPP [R6A]", "normalised enrichment score": 0.333}
{"Substitution": "GSAKRRLPGEDPP [F8P]", "normalised enrichment score": 0.473}
{"Substitution": "GSAKRRLFGEDPV [P13V]", "normalised enrichment score": 0.741}
{"Substitution": "GSAKRVLFGEDPP [R6V]", "normalised enrichment score": 0.426}
{"Substitution": "GSAKRRLFGEDPG [P13G]", "normalised enrichment score": 0.454}
{"Substitution": "GSAKPRLFGEDPP [R5P]", "normalised enrichment score": 0.224}
{"Substitution": "GSAKRRLTGEDPP [F8T]", "normalised enrichment score": 0.225}
{"Substitution": "GSAKRPLFGEDPP [R6P]", "normalised enrichment score": 0.00737}
{"Substitution": "VSAKRRLFGEDPP [G1V]", "normalised enrichment score": 0.849}
{"Substitution": "GSAKRRLFGEHPP [D11H]", "normalised enrichment score": 0.245}
{"Substitution": "GSAKRRLWGEDPP [F8W]", "normalised enrichment score": 0.207}
{"Substitution": "GCAKRRLFGEDPP [S2C]", "normalised enrichment score": 0.716}
{"note": "Some of these lines once more (series 1):"}
{"Substitution": "E33M", "binding fitness": "-0.539 natural log"}
{"Substitution": "N42A", "binding fitness": "-1.04 natural log"}
{"Substitution": "L52Q", "binding fitness": "-1.53 natural log"}
{"Substitution": "V56H", "binding fitness": "-1.54 natural log"}
{"Substitution": "S43N", "binding fitness": "-0.385 natural log"}
{"Substitution": "Q55D", "binding fitness": "-0.836 natural log"}
{"Substitution": "K34H", "binding fitness": "-0.26 natural log"}
{"Substitution": "L52R", "binding fitness": "-1.39 natural log"}
